Measurements pooled from the literature.
Numbered parts are unrelated; each lists some results of a single study. Positions count from the first letter of the parent shown.

Set 1 — method: RNA Bind-n-Seq; molecule type: RNA; sample: in vitro; concentration: 365 nM; relative to: no-protein control; direction: higher = stronger binding
Target: RNA binding protein fox-1 homolog 2, RRM domain, GST-SBP tag (RBFOX2, Homo sapiens, UniProt O43251-10, residues 100-194)
Notes: natural RNA segment, single round, ends assumed
Construct (chain): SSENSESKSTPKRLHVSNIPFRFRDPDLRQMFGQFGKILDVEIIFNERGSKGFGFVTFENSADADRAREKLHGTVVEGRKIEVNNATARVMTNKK
Strand	RBNS enrichment (R)
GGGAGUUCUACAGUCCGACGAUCUUUCUUAUUUUUAUAUUUUAACUCUAUUCUUGGAUGUAUAAAGUGAACUUUUUCGCUUCUGUAAGUAUGCUCUAUGCACCUCUAACGUUUUAUCCUGUAUUUAUAUGUUGUGGAAUUCUCGGGUGCCAA	0.585
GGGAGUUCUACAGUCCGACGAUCUUAAUACAUUAAGUGGGGUAGACUGAGGGAUUUUAGCCUCUUCCCUCUGAUUUUUCCUUUCGCGAAUCCGUAUCUGCAGAAUGGGCCACUGUAGGGGUUGGGGUUUAUUUUGGAAUUCUCGGGUGCCAA	0.262
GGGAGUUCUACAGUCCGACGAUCGGCCCUCCUUCCUGAAGACAGUCAGCCUGGGGCUCUUACCCUGAGACAAUGAGGGCCGCAUGAAGAUCUGGUGCUGCGCGGAUGCUGCCCUGGUGAUGCUGUGUGCUGGGUGGAAUUCUCGGGUGCCAA	6.64
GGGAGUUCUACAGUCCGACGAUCAGAUGUUUAUAUCUUUGGAAGUUUUACAUAAAUCAAAGGAAGAAAGCACAUUUAAAAUGAGAAACUAAGACCAAUUUCUGUUUUUAAGAGGAAAAAGAAUGAUUGAUGUAUGGAAUUCUCGGGUGCCAA	1.06
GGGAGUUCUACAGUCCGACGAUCGUGGGCUUCUUCAUCUUUACGUUCUAGACUCCAAUUUUGUCCAAUGUAUAUAGAAUCUCCAUAUUAAAGAAAUAUUCAUAAUCAGAAAGCUUGAAUAUUGUUUUUGCACCUGGAAUUCUCGGGUGCCAA	0.594
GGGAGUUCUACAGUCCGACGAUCCCUGUGUGGCGCCGUCCAUCUGGCCACUGCAGUCCAACCUCCACAAGAGAGAAGAACUAAAGAAGUUCUUUUUAUUCCUCGUUACCAAAUAAAUCAUUUCUCUCUUUACCUGGAAUUCUCGGGUGCCAA	0.549
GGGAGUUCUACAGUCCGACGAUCGCGGAACCUUCUCUGUACAGCGCCCCCUUUCUGUUGUGCUAUUGGUUGCAGCUGCCAUGCUCAGAAUGCGUUUUGAGAGCUGAAGCAAGGUGCUUGCAGUCACCUGAGGCUGGAAUUCUCGGGUGCCAA	1.44
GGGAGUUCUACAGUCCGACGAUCCACACAUAGGUGCGUGUGUGUCUUUUGUAUUUUUUCUCCUCCAAGGAGCUGUGUCAGUGUGGACGUUCUGUUUCAGGGAGUUGGAAAGGAGGGUGUCUGCAGAAGGUGGAUGGAAUUCUCGGGUGCCAA	0.799

Set 2 — method: protein-binding microarray; molecule type: double-stranded DNA, one strand shown; sample: in vitro; concentration: 250 nM; notes: 60-bp whole probe; with: salmon DNA 0.4 mg/ml; relative to: random background probes; direction: higher = stronger binding; all sequences stand within: GCCTAGCAC … GTCTTGATTCGCTTGACGCTGCTG
Target: Interferon regulatory factor 7, full length, phosphomimetic (IRF7, Homo sapiens, UniProt Q92985, residues 1-503, S101K/S471D/S472D/S475D/S476D/S477D/S483D/S484D/S487D)
Sequence of UniProt Q92985 (whole entry, unmodified, looked up): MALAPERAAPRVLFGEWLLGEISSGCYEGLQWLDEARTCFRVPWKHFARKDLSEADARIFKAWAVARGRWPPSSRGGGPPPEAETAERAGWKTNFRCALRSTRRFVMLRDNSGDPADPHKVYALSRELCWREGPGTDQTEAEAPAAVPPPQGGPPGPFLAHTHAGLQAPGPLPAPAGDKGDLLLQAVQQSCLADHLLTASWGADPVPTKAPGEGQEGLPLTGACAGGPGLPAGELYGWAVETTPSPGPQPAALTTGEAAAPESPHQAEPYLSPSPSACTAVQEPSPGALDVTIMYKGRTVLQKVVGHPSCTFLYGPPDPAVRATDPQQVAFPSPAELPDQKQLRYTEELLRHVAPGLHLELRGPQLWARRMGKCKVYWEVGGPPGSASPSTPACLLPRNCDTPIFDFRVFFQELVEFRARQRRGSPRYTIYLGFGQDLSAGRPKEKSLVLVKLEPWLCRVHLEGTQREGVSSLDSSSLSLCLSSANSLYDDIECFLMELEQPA
Strand	log fluorescence [z-score]
TTCCTTGCTATGTTGCTCAGGTGCTAG	0.816
GACGATTTCAGTATGGAGACGTGCTAG	0.259
TTAGGTCTCGGACTGCGTTAGTGCTAG	0.406
TCAACTTTCTCTGCTCTTTTCGTGCTA	0.955
GACGGTTTCGGTTACGGGACGTGCTAG	9.59
AACGGTTTCGACTTTCGGGACGTGCTA	11.2
TTAGGTTTCGGGTATCCGTTAGTGCTA	7.18
TTAGGACTGGGCTATCGGTTAGTGCTA	-0.297
CACGGTATCCTACTGCTGACGTGCTAG	0.225
TCAACTTTCCATTTCTGACTGTGCTAG	2.05
GACGAACTGAGTTTTGAGACGTGCTAG	-0.0844
TCCATTTTCTGAATGCCTTGGTGCTAG	1.5
TTAGGACTGGACTATCGGTTAGTGCTA	-0.0663
GGGTGGGAGCCGAAGACGCCGTGCTAG	-1.08
TCATTTTTGTATTTTTGACTGTGCTAG	1.09
TAATATCTAAGATTCTAGCCGTGCTAG	-0.101
TTGGGTATCGACTATCGGTTAGTGCTA	0.301
TCAACTTTCTTTTGCTTACTGTGCTAG	0.818
TCAAATTCTCATTTCCAACTGTGCTAG	0.805

Set 3 — method: universal PBM; molecule type: double-stranded DNA, one strand shown; sample: in vitro; concentration: 600 nM; direction: higher = stronger binding
Target: Sal-like protein 4, full length isoform A (SALL4, Homo sapiens, UniProt Q9UJQ4, residues 1-1053)
Sequence of UniProt Q9UJQ4 (whole entry, looked up): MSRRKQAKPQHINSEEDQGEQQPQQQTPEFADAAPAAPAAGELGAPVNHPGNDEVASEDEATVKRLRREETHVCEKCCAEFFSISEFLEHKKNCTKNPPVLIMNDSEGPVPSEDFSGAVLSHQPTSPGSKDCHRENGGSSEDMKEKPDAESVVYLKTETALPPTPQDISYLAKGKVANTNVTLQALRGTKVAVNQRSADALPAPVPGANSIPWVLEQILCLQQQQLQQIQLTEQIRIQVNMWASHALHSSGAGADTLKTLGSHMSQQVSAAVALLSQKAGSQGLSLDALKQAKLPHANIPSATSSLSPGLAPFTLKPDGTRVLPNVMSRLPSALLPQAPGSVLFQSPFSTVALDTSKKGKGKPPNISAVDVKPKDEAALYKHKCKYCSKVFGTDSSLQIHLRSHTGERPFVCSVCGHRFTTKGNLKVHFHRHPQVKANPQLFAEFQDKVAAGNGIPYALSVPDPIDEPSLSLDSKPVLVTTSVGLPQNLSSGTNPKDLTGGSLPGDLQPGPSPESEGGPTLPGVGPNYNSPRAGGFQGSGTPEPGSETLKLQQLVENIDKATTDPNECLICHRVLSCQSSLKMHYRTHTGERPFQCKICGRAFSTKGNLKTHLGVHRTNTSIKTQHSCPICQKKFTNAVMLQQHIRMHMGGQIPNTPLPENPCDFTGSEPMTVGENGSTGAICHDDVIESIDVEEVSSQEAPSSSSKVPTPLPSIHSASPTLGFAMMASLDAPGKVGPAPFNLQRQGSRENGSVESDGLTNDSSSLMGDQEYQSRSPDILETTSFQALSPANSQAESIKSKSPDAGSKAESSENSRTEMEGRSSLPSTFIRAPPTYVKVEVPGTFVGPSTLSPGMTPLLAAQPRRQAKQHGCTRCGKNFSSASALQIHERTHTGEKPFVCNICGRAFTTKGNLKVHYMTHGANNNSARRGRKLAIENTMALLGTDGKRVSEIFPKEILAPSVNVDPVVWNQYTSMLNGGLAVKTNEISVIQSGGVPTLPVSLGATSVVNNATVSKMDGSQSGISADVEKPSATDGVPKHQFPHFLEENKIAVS
Notes: 8-mer, flanks averaged, mean of replicates
Strand	E-score
GAGGTTGC	-0.302
AGATCGTG	-0.0997
CTGTTAGC	-0.19
GCGGTCAC	-0.258
ATAGTCAT	0.192
CTCCCGAC	-0.213
AGGAACGA	-0.123
CTGCCACA	-0.19
GAGTGACC	-0.251
GATCCGCC	-0.195
AGTTAACT	-0.116
CGAACTGA	-0.0788
GACCAAAC	-0.11
CATAGGCA	0.113
ATCTGTGA	0.0796
CGCGGTGC	-0.388
CGCGGAGC	-0.378
AATAACCA	0.336
GCCATCCA	-0.139
GTGCCGTA	-0.129
CTCGGCGA	-0.205
CAAGGGTA	0.0101
ACCTTCGC	-0.111
CGCCTAAC	-0.106
CAAGCGCC	-0.237

Set 4 — method: protein binding microarray; molecule type: double-stranded DNA, one strand shown; sample: in vitro; concentration: not given; relative to: not given; direction: higher = stronger binding
Target: Histone acetyltransferase KAT6A, winged helix 2, GST fusion (KAT6A, Homo sapiens, UniProt Q92794, residues 85-181)
Notes: 8-mer, flanks averaged, mean of 2 arrays, mostly near background
Construct (chain): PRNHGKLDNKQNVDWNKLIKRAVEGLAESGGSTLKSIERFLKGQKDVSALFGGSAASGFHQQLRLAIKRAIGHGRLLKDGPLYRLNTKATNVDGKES
Strand	E-score
CCCTTCGC	-0.118
ATCTGGAC	0.018
ATAAGATG	-0.0532
AGTATTGC	-0.00988
ATTTCGGG	-0.00421
CACGCCAC	-0.0147
AGGTCGAC	0.103
CCCGGCAC	0.0301
ACTTCACA	-0.118
ATTTTCGA	0.0608
AGGCTAGG	-0.171
AACAGATA	-0.103
CAATCAGG	0.0601
AATGGGAC	-0.0329
CAGGGCCG	0.133
TATGTTGA	-0.14
CTGCCATA	-0.11
TACTACAA	-0.0845

Set 5 — method: DHFR PCA, deep sequencing; sample: yeast; with: (+)-ABA 200 µM; relative to: wild-type fitted maximum; direction: higher = stronger binding
Target: ABI1, truncated, D143A, DHFR fusion (Arabidopsis thaliana)
Notes: methotrexate growth selection, single substitutions
Parent: PYL1, truncated, DHFR fusion (Arabidopsis thaliana); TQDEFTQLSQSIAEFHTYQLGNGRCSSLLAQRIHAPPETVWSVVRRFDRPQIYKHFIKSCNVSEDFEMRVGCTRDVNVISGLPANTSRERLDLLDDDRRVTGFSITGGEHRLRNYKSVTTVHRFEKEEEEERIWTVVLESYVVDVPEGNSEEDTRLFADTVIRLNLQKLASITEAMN; partner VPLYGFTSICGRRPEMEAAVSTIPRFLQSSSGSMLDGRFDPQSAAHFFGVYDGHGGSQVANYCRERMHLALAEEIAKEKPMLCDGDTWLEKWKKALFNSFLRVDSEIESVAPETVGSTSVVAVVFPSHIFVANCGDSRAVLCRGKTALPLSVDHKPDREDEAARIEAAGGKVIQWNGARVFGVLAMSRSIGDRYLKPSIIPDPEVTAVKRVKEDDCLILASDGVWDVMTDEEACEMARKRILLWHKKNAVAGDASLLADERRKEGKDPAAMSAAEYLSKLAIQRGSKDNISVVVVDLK
Change	relative binding score
V161H	14.8%
E125G	104%
T120P	4.18%
V118F	76.7%
S171Q	104%
A158R	-4.2%
A84E	21.6%
A35T	76%
V76R	-0.671%
P50G	4.22%

Some of these lines once more (set 5):
Change	relative binding score
S171Q	104%
A158R	-4.2%
A84E	21.6%
A35T	76%
V76R	-0.671%
P50G	4.22%
